# Experimental data collected from several papers.
# Compare with care: the assays were run in different laboratories. Values joined by “and” are separate records of one study, mostly repeats; a detail may differ. ± gives the spread as reported.
Structure (SMILES),cell line,test,conditions,scale,measurement,result
CC/C(=N\NC(=O)NCc1cccc(O)c1)c1ccc(O)c(C)c1O,SK-OV-3,Western blot,"10 µM, 1 h, 2D culture, unit not given",reference: DMSO,LATS band intensity,0.26 ± 0.25
CSCC[C@H](NC(=O)[C@H](Cc1ccc(OS(=O)(=O)O)cc1)NC(=O)[C@@H](N)CC(=O)O)C(=O)NCC(=O)N[C@@H](Cc1c[nH]c2ccccc12)C(=O)N[C@@H](CCSC)C(=O)N[C@@H](CC(=O)O)C(=O)N[C@@H](Cc1ccccc1)C(N)=O,HEK293T control virus,"agonist, GloSensor cAMP","0.00512 nM, no receptor expressed",higher = more cAMP,cAMP accumulation,0.173 a.u.
Cc1cc(Nc2ncc(Cl)c(Nc3ccccc3S(=O)(=O)C(C)C)n2)c(OC(C)C)cc1C1CCNCC1,CLB-GE,"phosphoproteomics LC-MS/MS, measured: STAM2 phosphorylation","200 nM, 60 min",reference: untreated,log2 fold change,-1.71
Cc1cc(=O)[nH]n1-c1nc(-c2ccc(Cl)cc2)c2c(NC(=O)c3ccccc3)nnc-2[nH]1,A549/ATCC,NCI60 SRB,10 µM,,growth percent,103%
[Cl-].[Cl-].[Os+2].c1cnc2c(c1)ccc1cccnc12.c1cnc2c(c1)ccc1cccnc12.c1cnc2c(c1)ccc1cccnc12,SK-MEL-28,"cell growth, SRB","dark, normoxia",,TGI,277000 nM
Cc1cnc(NC2CCOCC2)nc1-n1cnc(C(=O)NC(CN)c2cc(F)cc(Cl)c2)c1 (centres unmarked),A-375,flow cytometry,"1 µM, 72 h",,S phase cells,3.6%
Cn1cc(Nc2nccc(-c3ccc4c(c3)CN(C3COC3)CC[C@H]4NC(=O)c3cn(C(C)(C)C)nn3)n2)cn1,mouse splenic B cells,measured: iNOS signalling,"30 mg/kg, IgD-activated in vivo","reference: vehicle, direction not given",pathway activation z-score,1
c1ccc2[nH]ccc2c1,HCT-8,"RNA-seq, measured: SOCS1",concentration not given,,"mRNA level, LS mean",10.3 counts per million
COc1cc([C@@H]2c3cc4c(cc3[C@@H](O[C@@H]3O[C@@H]5CO[C@@H](C)O[C@H]5[C@H](O)[C@H]3O)[C@H]3COC(=O)[C@H]23)OCO4)cc(OC)c1O,HD-MB03,cell growth,"168 h, single agent",,IC50,39.7 nM
Cc1cc(NS(=O)(=O)c2ccc(NC(=O)/C(C#N)=C/c3ccc(N4CCCCC4)cc3)cc2)no1,HCT-116,"qRT-PCR, measured: cyclin A1",concentration not given,reference: untreated,mRNA level decrease,2.3 fold
O=C(NOC[C@H](O)CO)c1ccc(F)c(F)c1Nc1ccc(I)cc1F,A-375,,"10 µM, 72 h",,viability,11.5%
COc1cnc2cccc(N3CCc4c(cc(Cn5ccnc5C)cc4-c4cn(C)nc4C(F)(F)F)C3=O)c2c1,BICR56,cell growth,120 h,,EC50,> 30000 nM
Nc1cccc2c1C(=O)N([C@@H]1CCCNC1)C2=O,RAW 264.7,measured: nitrite,"30 µM, added: LPS",,inhibition,32%
CCCCc1oc2ccc(NS(C)(=O)=O)cc2c1C(=O)c1ccc(OCCCN(CCCC)CCCC)cc1,human embryonic stem cell aggregates,"mRNA level, microarray, measured: NTN4","0.5 µM, 120 h","reference: untreated, up-regulated",fold change,2 fold
C[C@@H]1CN(C(=O)c2ccc(NC(=O)c3cc(O[C@H](C)c4c(Cl)ccc(F)c4Cl)c(N)nn3)cc2)C[C@H](C)N1,NCI-H3122 (EML4-ALK variant 1),cell viability,,,Emax,67%
O=C(/C=C/C=C/C=C/C1CCCCC1)NC1=C[C@@](O)(/C=C/C=C/C=C/C(=O)NC2=C(O)CCC2=O)[C@@H]2O[C@@H]2C1=O,AU565,"cell growth, CellTiter-Glo",78 h,,GI50,14100 nM
CCCc1nc(C)c2c(O)nc(-c3cc(S(=O)(=O)N4CCN(CC)CC4)ccc3OCC)nn12,primary rat hippocampal/cortical neuron-glia cultures,,"1 µM, added: 1 µM α-synuclein oligomers",,reversal of trafficking deficit,-9.52%
COc1ccc(Oc2ccc(CNCc3cnc4nc(N)nc(N)c4n3)cc2)cc1,786-O,"high-content imaging, measured: MitoTracker Red uptake",10 µM,,mitochondrial toxicity,-5.87 ± 28.9%
Nc1cccc2c1C(=O)N(C1CCC(=O)NC1=O)C2=O (centres unmarked),MM1.S,XTT,1.4 µM,,viability,28% and 16% and 29%
CCc1c2c(nc3ccc(O)cc13)-c1cc3c(c(=O)n1C2)COC(=O)[C@]3(O)CC,HD-MB03,cell growth,single agent,,IC50,1 nM
COc1cc(/C=C/C(=O)N2CCC=CC2=O)cc(OC)c1OC,MDA-MB-468,"qRT-PCR, measured: PUMA","30 µM, 6 h",reference: time zero,mRNA expression,397 ± 61.5%
CCN1CCN(Cc2ccc(Nc3ncc(F)c(-c4cc(F)c5nc(C)n(C(C)C)c5c4)n3)nc2)CC1,HD-MB03,cell growth,"168 h, single agent",,IC50,1550 nM
Cn1c(Nc2nc3ccc(C(F)(F)F)cc3s2)nc2cc(C(=O)NCCOCCO)ccc21,SH-SY5Y,"RNA-seq, measured: DKK2 mRNA","5 µM, 5 h",reference: untreated cells,fold change,2.25
Nc1cc(C(F)(F)F)c(-c2cc(N3CCOCC3)nc(N3CCOCC3)n2)cn1,HD-MB03,cell growth,"168 h, DMSO",,IC50,863 nM
CCn1cc(-c2cc(Cn3ccnc3)cc3c2CCN([C@H](c2cc(OC)ccn2)C2CC2)C3=O)c(C(F)(F)F)n1,KMS-26,"cell growth, inhibitor",120 h,,EC50,10300 nM
C[C@H](Nc1ccc2c(c1)OCCn1cc(N3C(=O)OC[C@H]3C(F)F)nc1-2)C(N)=O,HCC202,CellTiter-Glo,120 h,,Hill coefficient GR curve,1.12
CCn1cc(-c2cc(Cn3ccoc3=N)cc3c2CCN([C@@H](C)c2cc(OC)ccn2)C3=O)c(C(F)(F)F)n1,HT115,"cell growth, inhibitor",120 h,,EC50,154 nM
O=c1[nH]nc(OCCCc2ccc(Cl)cc2)c(NCc2cccnc2)c1Br,HEK293T,"RNA-seq, measured: CEBPB mRNA","10 µM, 6 h",reference: vehicle,log2 fold change,1.35
COc1c(C)cnc(Cn2cnc3c(Cl)nc(N)nc32)c1C,HD-MB03,cell growth,"168 h, DMSO",,IC50,150 nM
Cc1ccc(CNC(=O)Cn2cc(CSc3nc4ccccc4[nH]3)nn2)cc1,MDA-MB-231,MTT,500 ppm,,cytotoxicity,93.7%
Cc1nc(Nc2ncc(C(=O)Nc3c(C)cccc3Cl)s2)cc(N2CCN(CCO)CC2)n1,HD-MB03,cell growth,"168 h, single agent",,IC50,> 10000 nM
Cn1cc(-c2ccc(-c3cncc(Cl)c3N3CCC4(CCNC4=O)CC3)cc2)cn1,COLO 205,"gene expression, microarray, measured: DRAM1 mRNA","concentration not given, 2 h",reference: untreated cells,log2 fold change,1.9
CC[C@H]1OC(=O)[C@H](C)[C@@H](O[C@H]2C[C@@](C)(OC)[C@@H](O)[C@H](C)O2)[C@H](C)[C@@H](O[C@@H]2O[C@H](C)C[C@H](N(C)C)[C@H]2O)[C@](C)(OC)C[C@@H](C)C(=O)[C@H](C)[C@@H](O)[C@]1(C)O,primary rat hippocampal/cortical neuron-glia cultures,,"1 µM, added: 1 µM α-synuclein oligomers",,reversal of trafficking deficit,5.9%
CC(C)NCC(O)c1ccc(O)c(O)c1 (centres unmarked),mouse ventricular cardiomyocytes,,"dose not given, 0.343 s",,sarcomere length,1.8 µm
O=C(O)c1cc(Cl)ccc1S(=O)(=O)NCCCCN1C(=O)c2cccc3cccc(c23)C1=O,IEC-6,,"3.0 µM, 0.5 h, added: Adriamycin 1.7 µM 30 min",,caspase-3/7 activity decrease,~50%
CC1=CC[C@H]2[C@@H]([C@@H]1CC[C@H]1[C@]3(C)CC[C@H](O)C(C)(C)O[C@H]3CC[C@]1(C)O)C(C)(C)CC[C@]2(C)O,KB-C2 (P-gp overexpressing),drug efflux,"10 µM, 60 min",,intracellular [3H]-paclitaxel remaining,61%
C[C@H]1[C@@H](O)O[C@@H]2O[C@@]3(C)CC[C@H]4[C@H](C)CC[C@@H]1[C@@]24OO3,THP-1,"annexin V/PI flow cytometry, measured: annexin V-/PI-","0.4 µM, 24 h",,viable cells,96.4%
CO[C@H]1C[C@@H]2CC[C@@H](C)[C@@](O)(O2)C(=O)C(=O)N2CCCC[C@H]2C(=O)O[C@H]([C@H](C)C[C@@H]2CC[C@@H](OC(=O)C(C)(CO)CO)[C@H](OC)C2)CC(=O)[C@H](C)/C=C(\C)[C@@H](O)[C@@H](OC)C(=O)[C@H](C)C[C@H](C)/C=C/C=C/C=C/1C,HD-MB03,cell growth,"168 h, single agent",,IC50,155 nM
Cc1cccc(-c2[nH]c(CNc3ccccc3F)nc2-c2ccc3ncnn3c2)n1,MM1.S,XTT,2.5 µM,reference: untreated,viability,14%
COC(=O)C1CCN(C(=O)c2ccc(N(CCO)Cc3cnc4nc(N)nc(N)c4n3)cc2)CC1,786-O,"high-content imaging, measured: MitoTracker Red uptake",10 µM,,mitochondrial toxicity,-0.37 ± 4.59%
C=Cc1c2[n-]c(c1C)/C=c1\[n-]/c(c(C)c1C=C)=C\c1[n-]c(c(CCC(=O)O)c1C)/C=c1\[n-]c(c(C)c1CCC(=O)O)=C2.[Sn+4],SH-SY5Y,"RNA-seq, measured: SH3TC1 mRNA","5 µM, 5 h",reference: untreated cells,fold change,1.78
O=C(C[C@@H](C(F)F)n1ccc(F)n1)N1CCC(O)(Cn2cnc3c(cnn3-c3ccc(F)cc3)c2=O)CC1,CHP-212 parental (wild-type USP7),PI flow cytometry,"1 µM, 24 h",,cells in G2/M phase,5.62% and 9.76% and 13.1%
CCc1cc2c(cc1N1CCC(N3CCOCC3)CC1)C(C)(C)c1[nH]c3cc(C#N)ccc3c1C2=O,HD-MB03,cell growth,"168 h, single agent",,IC50,605 nM
C=C1CC(C(=O)Nc2cc(C(=O)NC)cc(-c3sccc3CCCCCCCC)c2OC)C1,HMC3 expressing human TREM2,fluorescent latex beads,"25 µM, 1 h",reference: control,phagocytosis,155%
Cc1nn(-c2nc3c(F)cc(F)cc3s2)c(O)c1C(c1ccc(C(F)(F)F)cc1)c1c(C)nn(-c2nc3c(F)cc(F)cc3s2)c1O,THP1-Dual,western blot,"20 µM, added: cGAMP",reference: DMSO,phospho-TBK1 to TBK1 ratio,0.684 and 0.806 and 0.856
COc1ncnc(C2CC2)c1-c1ncc2cnn(Cc3ccc(-c4nc(C(F)(F)F)cn4C(C)C)cc3)c2n1,"CHP-212 resistant sublines, USP7 V517F heterozygous",,50 µM,,viability,42%
O=C1CCC(N2C(=O)C=C(Nc3cccc(C4(NCCc5ccc(Cl)c(C(F)(F)F)c5)CCC4)c3)C2=O)C(=O)N1 (centres unmarked),patient-derived PDAC organoids,"qPCR, measured: ZBTB11 downstream transcripts",1 µM,,mRNA level,decreased
